# Experimental data from different studies.
# A part holds a random share of what one study measured. Positions count from the first letter of the parent shown.
# Sequence of UniProt P23975 (whole entry, looked up): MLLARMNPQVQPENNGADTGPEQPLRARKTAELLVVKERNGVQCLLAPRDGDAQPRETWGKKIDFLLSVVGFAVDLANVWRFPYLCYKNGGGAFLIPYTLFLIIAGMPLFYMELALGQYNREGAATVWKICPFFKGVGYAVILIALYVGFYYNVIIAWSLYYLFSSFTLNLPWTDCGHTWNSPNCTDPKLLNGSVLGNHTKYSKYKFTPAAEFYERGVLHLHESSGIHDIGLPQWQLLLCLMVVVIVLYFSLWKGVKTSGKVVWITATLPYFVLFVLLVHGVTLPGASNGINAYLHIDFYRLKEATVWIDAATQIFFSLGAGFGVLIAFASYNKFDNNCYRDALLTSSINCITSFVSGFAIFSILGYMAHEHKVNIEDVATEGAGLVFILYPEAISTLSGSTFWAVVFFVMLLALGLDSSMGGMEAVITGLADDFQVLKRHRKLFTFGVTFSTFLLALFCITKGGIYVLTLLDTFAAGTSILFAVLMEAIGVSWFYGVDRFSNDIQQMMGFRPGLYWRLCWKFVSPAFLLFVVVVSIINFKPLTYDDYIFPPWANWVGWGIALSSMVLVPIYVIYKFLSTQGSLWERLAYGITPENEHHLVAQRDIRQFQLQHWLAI
# Sequence of UniProt O75417 (whole entry, unmodified, looked up): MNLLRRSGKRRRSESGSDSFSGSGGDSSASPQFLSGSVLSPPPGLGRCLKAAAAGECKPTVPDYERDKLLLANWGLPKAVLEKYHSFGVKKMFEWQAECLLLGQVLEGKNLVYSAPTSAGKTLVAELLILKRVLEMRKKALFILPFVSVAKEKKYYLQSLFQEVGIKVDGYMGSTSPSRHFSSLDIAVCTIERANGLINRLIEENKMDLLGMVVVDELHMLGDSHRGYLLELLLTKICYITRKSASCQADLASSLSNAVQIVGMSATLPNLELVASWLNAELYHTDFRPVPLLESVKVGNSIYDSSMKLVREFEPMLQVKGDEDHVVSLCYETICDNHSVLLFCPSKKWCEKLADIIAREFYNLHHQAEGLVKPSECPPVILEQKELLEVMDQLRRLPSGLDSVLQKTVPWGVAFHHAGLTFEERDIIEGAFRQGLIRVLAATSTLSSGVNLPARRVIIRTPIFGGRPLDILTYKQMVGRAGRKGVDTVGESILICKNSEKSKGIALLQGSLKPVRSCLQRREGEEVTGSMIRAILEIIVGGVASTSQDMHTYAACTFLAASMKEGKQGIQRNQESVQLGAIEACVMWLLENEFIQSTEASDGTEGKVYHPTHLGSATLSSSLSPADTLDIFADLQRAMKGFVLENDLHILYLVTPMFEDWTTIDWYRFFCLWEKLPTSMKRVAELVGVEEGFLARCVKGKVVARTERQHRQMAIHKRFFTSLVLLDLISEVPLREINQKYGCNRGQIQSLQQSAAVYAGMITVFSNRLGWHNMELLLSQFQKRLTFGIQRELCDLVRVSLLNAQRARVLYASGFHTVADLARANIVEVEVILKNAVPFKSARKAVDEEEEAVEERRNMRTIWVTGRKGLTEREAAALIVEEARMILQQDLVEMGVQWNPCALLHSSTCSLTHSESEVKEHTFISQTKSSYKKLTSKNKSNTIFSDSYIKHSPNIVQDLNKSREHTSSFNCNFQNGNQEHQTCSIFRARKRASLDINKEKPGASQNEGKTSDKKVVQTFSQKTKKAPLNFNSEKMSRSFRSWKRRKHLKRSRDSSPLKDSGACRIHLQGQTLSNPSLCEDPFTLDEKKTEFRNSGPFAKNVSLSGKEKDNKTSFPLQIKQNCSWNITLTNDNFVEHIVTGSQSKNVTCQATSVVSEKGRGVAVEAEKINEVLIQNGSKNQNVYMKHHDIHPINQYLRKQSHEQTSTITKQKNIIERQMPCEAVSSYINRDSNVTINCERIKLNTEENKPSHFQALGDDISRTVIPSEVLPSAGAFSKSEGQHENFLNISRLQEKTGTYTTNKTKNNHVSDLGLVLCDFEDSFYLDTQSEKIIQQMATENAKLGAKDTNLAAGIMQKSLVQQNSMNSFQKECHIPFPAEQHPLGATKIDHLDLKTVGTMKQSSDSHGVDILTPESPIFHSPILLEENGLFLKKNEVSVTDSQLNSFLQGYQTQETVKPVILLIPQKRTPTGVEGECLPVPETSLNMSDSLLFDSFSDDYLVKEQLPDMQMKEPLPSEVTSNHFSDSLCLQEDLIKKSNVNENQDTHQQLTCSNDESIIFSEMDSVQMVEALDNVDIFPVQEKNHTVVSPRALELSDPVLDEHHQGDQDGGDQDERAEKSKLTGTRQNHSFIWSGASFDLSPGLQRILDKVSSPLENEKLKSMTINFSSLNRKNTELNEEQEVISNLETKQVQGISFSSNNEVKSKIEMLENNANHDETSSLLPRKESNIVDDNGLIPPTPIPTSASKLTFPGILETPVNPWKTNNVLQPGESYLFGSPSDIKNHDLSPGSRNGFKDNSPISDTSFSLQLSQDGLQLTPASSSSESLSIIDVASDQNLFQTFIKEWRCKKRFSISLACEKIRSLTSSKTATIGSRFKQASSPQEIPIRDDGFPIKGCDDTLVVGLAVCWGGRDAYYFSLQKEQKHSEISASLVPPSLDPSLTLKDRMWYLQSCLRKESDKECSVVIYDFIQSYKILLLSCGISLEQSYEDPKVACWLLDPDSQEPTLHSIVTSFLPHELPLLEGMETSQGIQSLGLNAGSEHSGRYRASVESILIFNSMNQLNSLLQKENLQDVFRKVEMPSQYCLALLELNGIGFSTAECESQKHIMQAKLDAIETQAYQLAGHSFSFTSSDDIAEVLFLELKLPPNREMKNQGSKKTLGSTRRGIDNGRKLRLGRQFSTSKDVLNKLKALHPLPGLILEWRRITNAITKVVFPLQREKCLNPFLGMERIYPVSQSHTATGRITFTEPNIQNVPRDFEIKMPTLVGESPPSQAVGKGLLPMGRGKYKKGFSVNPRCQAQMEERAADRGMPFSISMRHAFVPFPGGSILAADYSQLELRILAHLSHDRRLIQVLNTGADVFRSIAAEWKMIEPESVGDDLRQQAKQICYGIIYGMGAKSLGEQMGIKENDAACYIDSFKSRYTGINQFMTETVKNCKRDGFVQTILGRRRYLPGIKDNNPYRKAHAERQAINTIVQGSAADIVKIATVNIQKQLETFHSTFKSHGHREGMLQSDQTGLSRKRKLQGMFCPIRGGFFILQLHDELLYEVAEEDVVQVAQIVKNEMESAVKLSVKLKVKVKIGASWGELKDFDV

# Series 1
# Target: tungstate, free oxyanion
# Method: microfluidic competitive inhibition
# Medium: in vitro, cell-free expressed
# Concentration: not given
# Notes: derived from inhibition constants, unchanged parent 2230 nM
# Reading: lower = stronger binding
# Parent: PafA, mature enzyme, eGFP fusion (Elizabethkingia meningoseptica, UniProt Q9KJX5); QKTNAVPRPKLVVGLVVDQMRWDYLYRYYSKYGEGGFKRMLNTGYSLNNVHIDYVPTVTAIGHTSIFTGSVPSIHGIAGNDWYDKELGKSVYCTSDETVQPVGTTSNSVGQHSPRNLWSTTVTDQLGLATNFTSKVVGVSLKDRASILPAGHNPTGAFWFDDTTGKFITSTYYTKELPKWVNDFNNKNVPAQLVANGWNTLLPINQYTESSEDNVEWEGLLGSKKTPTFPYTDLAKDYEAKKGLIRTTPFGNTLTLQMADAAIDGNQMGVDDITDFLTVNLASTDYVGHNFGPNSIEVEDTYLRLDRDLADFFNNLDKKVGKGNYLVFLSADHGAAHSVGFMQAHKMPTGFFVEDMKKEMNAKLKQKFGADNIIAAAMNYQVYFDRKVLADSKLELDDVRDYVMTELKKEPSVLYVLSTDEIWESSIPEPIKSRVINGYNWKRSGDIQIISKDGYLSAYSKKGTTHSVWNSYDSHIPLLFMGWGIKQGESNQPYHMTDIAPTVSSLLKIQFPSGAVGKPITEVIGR
Variant,oxyanion analog dissociation constant [nM]
E212G,1950
A60V,7250
L329V,2390
I427V,2540
I61G,1610
S426G,2020
A500V,2370
N266G,2580

# Series 2
# Target: CCNB3, cyclin fold, Cln2 fusion (human)
# Method: yeast growth competition, sequencing
# Medium: yeast
# Notes: strong parent motif
# Relative to: not given
# Reading: higher = stronger binding
# Parent: viral docking peptide; CKVKRKLFGSENI
Variant,normalised enrichment score
F8L,-0.209
R5A L7A,0.213
I13A,1.26
V3A,0.678
R5A,0.587
R5K,0.0895
K2A,1.02
E11A,0.817

# Further values, each from its own experiment
Compound,target or system,assay,system,conditions,scale,endpoint,value
NCC(CC(=O)O)c1ccc(Cl)cc1 (centres unmarked),"DNA polymerase theta, ATPase domain (POLQ, Homo sapiens, UniProt O75417)","enzyme activity, inhibitor",,77 µM,relative to: untreated,remaining activity,104%
Cc1ccc(NC(=O)c2ccnc(C(F)(F)F)c2)cc1-c1cc(OCCO)nc(N2CCOCC2)c1,"Serine/threonine-protein kinase PknB (pknB, Mycobacterium tuberculosis, UniProt P9WI81)",binding,,1 µM,,remaining binding,70%
O=c1ccc2ccc(OCCCCN3CCN(c4cccc5sccc45)CC3)cc2[nH]1,HEK-293T,"pseudovirus infection, FDA-approved drug library counter-screen",VSV pseudotyped with VSV-G,"10 µM, 16 h",relative to: vehicle-treated,GFP-positive cells,103%
C[C@@H]1CN(c2cc(-c3n[nH]c4ccc(OC5(C)CC5)cc34)ncn2)C[C@H](C)O1,"Sodium-dependent noradrenaline transporter (SLC6A2, Homo sapiens, UniProt P23975)",ligand displacement,,10 µM,,inhibition,7.45%
